Published values of several laboratories.
Each line is one published result; not all experiments were run side by side. Several values in a cell are separate wells, animals, samples, runs or records. ± gives the spread as reported.
rep main protease: Replicase polyprotein 1ab, main protease (rep, Severe acute respiratory syndrome coronavirus 2, UniProt P0DTD1)

C[n+]1ccc(-c2cc[n+](C)cc2)cc1
survival time (FVB mice wild-type paraquat poisoning; dose not given, event flag 1): 5 days and 4 days and 7 days and 6 days and 2 days and 3 days

O=C(O)c1cc(O)c2c(c1)C(=O)c1cccc(O)c1C2=O
inhibition (viral replication; SARS-CoV-2 trVLP system; 100 µM): > 90%

CNC(=O)[C@@H](NC(=O)[C@H](CC(C)C)[C@H](O)C(=O)NO)C(C)(C)C
inhibition (prothrombin time; human platelet-poor plasma; 1 µM, together with: AP venom): 13.6% and 13.7% and 10%

mycosubtilin
leakage time constant (calcein leakage; POPC/SM/CHOL liposomes; 150 µM, fusion peptide, SARS-CoV-2): 16 ± 4 min

CCCC[C@@H](C=O)NC(=O)[C@H](CC(C)C)NC(=O)OCc1ccccc1
inhibition (rep main protease; reporter gene (Gaussia luciferase), inhibitor; 20 µM): 4.19%

CC[C@H](C)[C@H](NC(=O)[C@H](CC(C)C)NC(=O)[C@H](Cc1c[nH]c2ccccc12)NC(=O)[C@H](CCC(N)=O)NC(=O)[C@@H](NC(=O)[C@H](Cc1ccccc1)NC(=O)[C@H](C)NC(=O)[C@H](CCCCNC(=O)COCCOCCNC(=O)COCCOCCNC(=O)CC[C@H](NC(=O)CCCCCCCCCCCCCCCCCCC(=O)O)C(=O)O)NC(=O)[C@H](CCC(N)=O)NC(=O)[C@H](C)NC(=O)[C@@H](NC(=O)[C@H](CCCCN)NC(=O)[C@H](CC(=O)O)NC(=O)[C@H](CC(C)C)NC(=O)C(C)(C)NC(=O)[C@@H](NC(=O)[C@H](CO)NC(=O)[C@H](Cc1ccc(O)cc1)NC(=O)[C@H](CC(=O)O)NC(=O)[C@H](CO)NC(=O)[C@@H](NC(=O)[C@H](Cc1ccccc1)NC(=O)[C@@H](NC(=O)CNC(=O)[C@H](CCC(=O)O)NC(=O)C(C)(C)NC(=O)[C@@H](N)Cc1ccc(O)cc1)[C@@H](C)O)[C@@H](C)O)[C@@H](C)CC)[C@@H](C)CC)C(C)C)C(=O)N[C@@H](C)C(=O)NCC(=O)NCC(=O)N1CCC[C@H]1C(=O)N[C@@H](CO)C(=O)N[C@@H](CO)C(=O)NCC(=O)N[C@@H](C)C(=O)N1CCC[C@H]1C(=O)N1CCC[C@H]1C(=O)N1CCC[C@H]1C(=O)N[C@@H](CO)C(N)=O
serum lipase (healthy subjects, single ascending dose; 0.25 mg, day 29): 23.5 ± 15.6 U/L

COc1ccc2c(O[C@@H]3C[C@H]4C(=O)N[C@]5(C(=O)NS(=O)(=O)C6CC6)C[C@H]5/C=C\CCCCN(C)C(=O)[C@@H]4C3)cc(-c3nc(C(C)C)cs3)nc2c1C
inhibition (rep main protease; reporter gene (Gaussia luciferase), inhibitor; 20 µM): -4.31%

fengycin
maximum fusion (calcein leakage; POPC/SM/CHOL liposomes; 150 µM, fusion peptide, SARS-CoV-2): 4 ± 3%

Nc1ncnc2c([C@@H]3N[C@H](CO)[C@@H](O)[C@H]3O)c[nH]c12
inhibition (Marburg marburgvirus; virus production; HeLa, Musoke; 0.4 µM): 6.6%

C=CCc1ccc(O)c(-c2ccc(O)c(CC=C)c2)c1
inhibition (viral replication; SARS-CoV-2 trVLP system; 100 µM): > 90%

Cn1cnc(Cn2c(=O)[nH]/c(=N\c3cc4cn(C)nc4cc3Cl)n(Cc3cc(F)c(F)cc3F)c2=O)n1
dry mouth TEAE, Mild severity (human, normal renal function; oral, 375 mg): 0%

O=c1ccn([C@@H]2O[C@](F)(CO)[C@@H](O)[C@H]2O)c(=O)[nH]1
protection (Lassa virus Josiah strain, strain 13/N guinea pig; concentration not given): 100%

ω-agatoxin IVA
PKA-RII phosphorylation inhibition (cAMP signalling, high-content microscopy; DRG neurons, rat, spinal cord injury; dose not given, normalised 0 to 1, unit not given, together with: forskolin, DAMGO 0.01; baseline: DAMGO maximum, higher = stronger inhibition): 1.24 and 0.957 and 1.03

polymyxin B
maximum fusion (calcein leakage; POPC/SM/CHOL liposomes; 150 µM, fusion peptide, SARS-CoV-2): 86 ± 4%

O=C(/C=C/c1ccc(O)cc1)c1ccc(O)cc1O
inhibition (viral replication; SARS-CoV-2 trVLP system; 100 µM): > 90%
